{"data": "Results pooled from the literature", "note": "Protocols differ between the studies behind these lines. Numbers after ± are the reported error.", "UniProt O43293, sequence (whole entry, looked up)": "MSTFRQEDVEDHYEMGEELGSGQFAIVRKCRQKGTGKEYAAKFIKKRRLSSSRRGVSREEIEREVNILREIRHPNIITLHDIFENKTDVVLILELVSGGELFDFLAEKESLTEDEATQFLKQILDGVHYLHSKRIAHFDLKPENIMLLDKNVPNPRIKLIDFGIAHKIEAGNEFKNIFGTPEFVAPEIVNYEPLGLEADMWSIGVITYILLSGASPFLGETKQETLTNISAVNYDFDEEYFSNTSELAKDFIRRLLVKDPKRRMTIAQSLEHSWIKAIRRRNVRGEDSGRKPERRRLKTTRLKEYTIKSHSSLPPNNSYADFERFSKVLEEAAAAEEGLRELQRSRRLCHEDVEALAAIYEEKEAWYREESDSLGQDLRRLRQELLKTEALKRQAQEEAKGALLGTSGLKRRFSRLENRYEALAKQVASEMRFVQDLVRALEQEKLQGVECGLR"}
{"Structure (SMILES)": "COc1ccccc1-c1n[nH]c2nc(NC3CCN(C(=O)Cc4ccc(F)cc4F)CC3)ncc12", "test": "bead binding, competition bead pull-down, refers to: LINJ.27.2350", "test system": "Leishmania donovani axenic amastigote extract", "setting": "10 µM", "how to read": "relative to: vehicle", "endpoint": "relative abundance", "value": 1.18}
{"Structure (SMILES)": "CCCC[C@H](NC(=O)CN1CCC(NC(=O)CN2CCN(CC(N)=O)CCN(CC(N)=O)CCN(CC(N)=O)CC2)CC1)C(=O)N[C@H]1CC(=O)NCCCC[C@@H](C(N)=O)NC(=O)[C@H](Cc2c[nH]c3ccccc23)NC(=O)[C@H](CCCNC(=N)N)NC(=O)[C@@H](Cc2ccccc2)NC(=O)[C@H](Cc2c[nH]cn2)NC1=O [lead-203 labelled]", "test": "SPECT/CT", "test system": "male C57BL/6J mice, B16-F10 tumour, tumour", "setting": "intravenous, 20 pmol, 2 h, 203Pb-labelled", "endpoint": "SUVmean", "value": "2.35 SUV"}
{"Structure (SMILES)": "CC(C)C[C@H](NC(=O)[C@@H](N)Cc1ccccc1)C(=O)N[C@@H](C)C(=O)N[C@H]1CSCc2cccc(n2)CSC[C@@H](C(=O)N[C@H](C(=O)NCC(=O)N[C@@H](CO)C(=O)N[C@@H](Cc2c[nH]c3ccccc23)C(=O)N[C@@H](CCCCNC(=O)CN2CCN(CC(=O)O)CCN(CC(=O)O)CCN(CC(=O)O)CC2)C(N)=O)[C@@H](C)O)NC(=O)[C@H](Cc2c[nH]cn2)NC(=O)[C@H]([C@@H](C)O)NC(=O)[C@H](CCC(=O)O)NC(=O)[C@@H]2CCCN2C1=O [gallium-68 labelled]", "test": "PET/CT imaging", "test system": "C57BL/6J mouse, B16-F10 tumour, tumour", "setting": "iv, 3.7 MBq, 1 h", "endpoint": "tumour uptake", "value": "4.5 %ID/g"}
{"Structure (SMILES)": "Cc1cc(O)cc(C)c1C[C@H](N)C(=O)N[C@H](C)C(=O)N[C@@H](Cc1ccccc1)C(=O)N[C@@H](CCCN)C(=O)NCCCCCC(=O)N[C@@H](CCCCNC(=O)CN1CCN(CC(=O)O)CCN(CC(=O)O)CCN(CC(=O)O)CC1)C(N)=O [indium-111 labelled]", "test system": "CD-1 mouse plasma", "setting": "30 min, 37 °C", "endpoint": "unbound fraction", "value": 0.686}
{"Structure (SMILES)": "N=C(N)NCCC[C@@H]1NC(=O)[C@H](CCCCNC(=O)CCC(NC(=S)Nc2ccc(CC3CN(CC(=O)O)CCN(CC(=O)O)CCN(CC(=O)O)CCN3CC(=O)O)cc2)C(=O)NCCCC[C@@H]2NC(=O)[C@@H](Cc3ccc(O)cc3)NC(=O)[C@H](CC(=O)O)NC(=O)CNC(=O)[C@H](CCCNC(=N)N)NC2=O)NC(=O)[C@@H](Cc2ccc(O)cc2)NC(=O)[C@H](CC(=O)O)NC(=O)CNC1=O (some centres unmarked) [scandium-44 labelled]", "test": "PET imaging ROI", "test system": "female athymic nude mice, U-87 MG xenograft, liver", "setting": "intravenous, 4 h", "endpoint": "tissue uptake", "value": "1.46 ± 0.57 %ID/g"}
{"Structure (SMILES)": "CC[C@H](C)[C@@H]([C@@H](CC(=O)N1CCC[C@H]1[C@H](OC)[C@@H](C)C(=O)N[C@H](C)[C@@H](O)c1ccccc1)OC)N(C)C(=O)[C@@H](NC(=O)[C@H](C(C)C)N(C)C(=O)OCc1ccc(NC(=O)[C@H](CCCNC(N)=O)NC(=O)[C@@H](NC(=O)CCCCCN2C(=O)CC(SC[C@H](NC(=O)[C@H](CC(=O)O)NC(=O)[C@H](Cc3ccc(O)cc3)NC(=O)[C@H](Cc3c[nH]c4ccccc34)NC(=O)[C@@H](N)CCCNC(=N)N)C(=O)O)C2=O)C(C)C)cc1)C(C)C (some centres unmarked)", "test system": "C57BL/6 mouse, healthy, heart", "setting": "intraperitoneal, 2.5 mg/kg, 24 h", "endpoint": "concentration", "value": "not detected"}
{"Structure (SMILES)": "CS(C)(=O)=Nc1ccc(-c2ccc(-c3nc4cc(O[C@@H]5CO[C@H]6[C@@H]5OC[C@H]6O)[nH]c4cc3F)cc2)cc1", "target or system": "Death-associated protein kinase 3 (DAPK3, Homo sapiens, UniProt O43293)", "test": "enzyme activity, inhibitor", "setting": "10 µM", "endpoint": "inhibition", "value": "-12%"}
{"Structure (SMILES)": "CSCC[C@@H]1NC(=O)[C@@H]2CCCN2C(=O)[C@H](C(C)C)NC(=O)[C@@H](NC(=S)Nc2ccc(CC3CN(CC(=O)O)CCN(CC(=O)O)CCN3CC(=O)O)cc2)CSSC[C@@H](C(=O)O)NC(=O)[C@H](C)NC(=O)[C@H](CCCNC(=N)N)NC(=O)[C@H](Cc2ccc(O)cc2)NC(=O)[C@H]([C@@H](C)O)NC1=O (some centres unmarked) [gallium-68 labelled]", "test": "PET imaging", "test system": "mouse bearing B16-F10 tumour", "setting": "intravenous, 0.5 h", "endpoint": "tumour uptake", "value": "0.9 ± 0.06 %ID/g"}
{"Structure (SMILES)": "CCCC[C@H](NC(=O)CN1CCC(NC(=S)Nc2ccc(C[C@H]3CN(CC(N)=O)CCN(CC(N)=O)CCN(CC(N)=O)CCN3CC(N)=O)cc2)CC1)C(=O)N[C@H]1CC(=O)NCCCC[C@@H](C(N)=O)NC(=O)[C@H](Cc2c[nH]c3ccccc23)NC(=O)[C@H](CCCNC(=N)N)NC(=O)[C@@H](Cc2ccccc2)NC(=O)[C@H](Cc2c[nH]cn2)NC1=O [lead-203 labelled]", "test": "SPECT/CT", "test system": "male C57BL/6J mice, B16-F10 tumour, tumour", "setting": "intravenous, 20 pmol, 2 h, 203Pb-labelled", "endpoint": "SUVmean", "value": "0.6 SUV"}
{"Structure (SMILES)": "CC(=O)N[C@@H](CC(C)C)C(=O)N[C@H](C(=O)N[C@@H](Cc1ccccc1)C(=O)N[C@]1(C)CCCCCC/C=C/CCC[C@@](C)(C(=O)N[C@@H](C)C(=O)N[C@@H](C)C(=O)N[C@@H](C)C(=O)N[C@@H](C)C(=O)N[C@@H](C)C(=O)N[C@H](C)C(N)=O)NC(=O)[C@H](CC(C)C)NC(=O)[C@H](CCCCNC(=O)CCNC(=O)C[C@@H]2N=C(c3ccc(Cl)cc3)c3c(sc(C)c3C)-n3c(C)nnc32)NC(=O)[C@H](C)NC(=O)[C@H](Cc2c[nH]c3ccccc23)NC(=O)[C@H](Cc2ccc(O)cc2)NC(=O)[C@H](C)NC1=O)[C@@H](C)O", "test system": "C57BL/6J mice, male, plasma", "setting": "intravenous, 10 mg/kg, 5% DMSO, PEG400, Tween-80, methylcellulose", "endpoint": "AUC(0-t)", "value": "61.7 µM·h"}
{"Structure (SMILES)": "O=C1NC2(CC2)COc2ncc(F)cc2[C@H]2COCCN2c2ccn3ncc1c3n2", "test system": "Sprague-Dawley rat, female, thymus", "setting": "oral, 5 mg/kg/day, 4 weeks dosing, end of recovery", "endpoint": "organ-to-body weight ratio", "value": "0.136 ± 0.029%"}
